Experimental data pooled from the literature.
Protocols differ between the studies behind these lines.
Cell line: MCF7
Read-out: cell growth or viability

With `O=C1c2ccccc2C(=O)c2c1ccc1c2C(C(=O)Nc2ccc(Br)cc2)C(=O)C1c1ccccc1` (stereo not drawn) the GI50 was 35.8 µg/mL.
With `COc1cc([C@@H]2c3cc4c(cc3[C@@H](OCc3cc(-c5ccc(C)cc5)no3)[C@H]3COC(=O)C23)OCO4)cc(OC)c1OC` (stereo partly drawn) the GI50 was 3.08 µM (SRB; 48 h).
The GI50 of `CCCCCCCCCCCCCCCC(=O)N[C@H](Cc1ccc(O)cc1)C(=O)N[C@H](CC(C)C)C(=O)N[C@@H](C(=O)NCC(=O)N[C@H](CC(N)=O)C(=O)NCC(=O)N[C@H](CC(C)C)C(=O)N[C@H](CCCNC(=N)N)C(=O)N[C@H](CO)C(=O)N[C@H](CC(N)=O)C(=O)N[C@H](CC(N)=O)C(=O)N[C@H](CCCNC(=N)N)C(N)=O)C(C)C` is reported as 0.04 µM (MTT; 48 h).
`CC(C)C[C@@H](NC(=O)[C@H](C)NC(=O)CNC(=O)[C@@H](NC=O)C(C)C)C(=O)N[C@@H](C)C(=O)N[C@@H](C(=O)N[C@H](C(=O)N[C@@H](C(=O)N[C@@H](Cc1c[nH]c2ccccc12)C(=O)N[C@H](CC(C)C)C(=O)N[C@@H](Cc1c[nH]c2ccccc12)C(=O)N[C@H](CC(C)C)C(=O)N[C@@H](Cc1c[nH]c2ccccc12)C(=O)N[C@H](CC(C)C)C(=O)N[C@@H](Cc1c[nH]c2ccccc12)C(=O)NCCO)[C@H](C)O)C(C)C)C(C)C` gave a GI50 of 0.99 µM (SRB; 48 h).
With `CC(C)C1=C(O)C(=O)C2=C(C1=O)[C@H](O)[C@@H](O)[C@H]1C(C)(C)CCC[C@]21C` the GI50 was 26 µM (SRB; 48 h).
The GI50 of `CCC(=C(c1ccc(O)cc1)c1ccc(Cl)cc1)c1ccc(OC)cc1` is reported as 1.05 µM (SRB).
`COc1cc([C@@H]2c3cc4c(cc3[C@@H](OCc3cc(-c5cc(C#N)cc(C#N)c5)no3)[C@H]3COC(=O)C23)OCO4)cc(OC)c1OC` (stereo partly drawn) gave a GI50 of 0.12 µM (SRB; 48 h).
For `COC(=O)N[C@H]1CC[C@@H](Nc2cc(NCc3ccccc3F)n3ncc(C(C)C)c3n2)CC1`, the GI50 was 4.2 µM (SRB).
`CC(=O)OCC1(O)C(Nc2cccc(C(C)=O)c2)C(N)C(NC(=O)N(C)C)(C(C)OC(C)=O)C1(C)O` (stereo not drawn) gave a GI50 of 7.31 µM (SRB).
For `COc1ccc(NC(=O)C2C(=O)C(c3ccccc3)c3ccc4c(c32)C(=O)c2ccccc2C4=O)cc1` (stereo not drawn), the GI50 was 23 µg/mL.
For `CC(=O)N[C@@H](Cc1ccc(O)cc1)CN(CC(=O)N[C@@H](CCCCN)CN(CC(=O)N[C@@H](Cc1ccccc1)CN(CC(=O)N[C@H]1CCCCNc2c(F)c(F)c(c(F)c2F)S(=O)(=O)c2c(F)c(F)c(c(F)c2F)NCCCC[C@@H](CN(CC(=O)N[C@@H](C)CN(CC(N)=O)S(C)(=O)=O)S(C)(=O)=O)NC(=O)CN(S(=O)(=O)CC(C)C)C[C@H](Cc2ccccc2)NC(=O)CN(S(=O)(=O)CCN)C1)S(=O)(=O)c1ccc(Cl)cc1)S(=O)(=O)CCN)S(C)(=O)=O`, the GI50 was 11 µM (CCK-8; 72 h).
With `COc1ccc(-c2cc(COC3c4cc5c(cc4C(c4cc(OC)c(OC)c(OC)c4)C4C(=O)OCC34)OCO5)on2)cc1` (stereo not drawn) the GI50 was 0.18 µM (SRB; 48 h).
The GI50 of `O=C1c2ccccc2C(=O)c2c1ccc1c2C(C(=O)Nc2ccccc2)C(=O)C1c1ccccc1` (stereo not drawn) is reported as 11.6 µg/mL.
With `CC(=O)N[C@@H](Cc1ccc(O)cc1)CN(CC(=O)N[C@@H](CCCCN)CN(CC(=O)N[C@@H](Cc1ccccc1)CN(CC(=O)N[C@H]1CCCCNc2c(F)c(F)c(c(F)c2F)S(=O)(=O)c2c(F)c(F)c(c(F)c2F)NCCCC[C@@H](CN(CC(=O)N[C@@H](C)CN(CC(N)=O)S(C)(=O)=O)S(C)(=O)=O)NC(=O)CN(S(=O)(=O)Cc2ccccc2)C[C@H](CC(C)C)NC(=O)CN(S(=O)(=O)CCN)C1)S(=O)(=O)CC(C)C)S(=O)(=O)CCN)S(C)(=O)=O` the GI50 was 7.42 µM (CCK-8; 72 h).
With `CCC(=C(c1ccc(Cl)cc1)c1ccc(OCCCN(C)C)cc1)c1ccc(OC)cc1` the GI50 was 1.05 µM (SRB).

For quick reference, copied from above:
`CC(=O)OCC1(O)C(Nc2cccc(C(C)=O)c2)C(N)C(NC(=O)N(C)C)(C(C)OC(C)=O)C1(C)O` (stereo not drawn) gave a GI50 of 7.31 µM (SRB).
For `COc1ccc(NC(=O)C2C(=O)C(c3ccccc3)c3ccc4c(c32)C(=O)c2ccccc2C4=O)cc1` (stereo not drawn), the GI50 was 23 µg/mL.
